Measured values gathered from unrelated publications.
“And” joins repeats or separate records; there may be more than shown. ± gives the spread as reported.
Sequence of UniProt P19491 (whole entry, looked up): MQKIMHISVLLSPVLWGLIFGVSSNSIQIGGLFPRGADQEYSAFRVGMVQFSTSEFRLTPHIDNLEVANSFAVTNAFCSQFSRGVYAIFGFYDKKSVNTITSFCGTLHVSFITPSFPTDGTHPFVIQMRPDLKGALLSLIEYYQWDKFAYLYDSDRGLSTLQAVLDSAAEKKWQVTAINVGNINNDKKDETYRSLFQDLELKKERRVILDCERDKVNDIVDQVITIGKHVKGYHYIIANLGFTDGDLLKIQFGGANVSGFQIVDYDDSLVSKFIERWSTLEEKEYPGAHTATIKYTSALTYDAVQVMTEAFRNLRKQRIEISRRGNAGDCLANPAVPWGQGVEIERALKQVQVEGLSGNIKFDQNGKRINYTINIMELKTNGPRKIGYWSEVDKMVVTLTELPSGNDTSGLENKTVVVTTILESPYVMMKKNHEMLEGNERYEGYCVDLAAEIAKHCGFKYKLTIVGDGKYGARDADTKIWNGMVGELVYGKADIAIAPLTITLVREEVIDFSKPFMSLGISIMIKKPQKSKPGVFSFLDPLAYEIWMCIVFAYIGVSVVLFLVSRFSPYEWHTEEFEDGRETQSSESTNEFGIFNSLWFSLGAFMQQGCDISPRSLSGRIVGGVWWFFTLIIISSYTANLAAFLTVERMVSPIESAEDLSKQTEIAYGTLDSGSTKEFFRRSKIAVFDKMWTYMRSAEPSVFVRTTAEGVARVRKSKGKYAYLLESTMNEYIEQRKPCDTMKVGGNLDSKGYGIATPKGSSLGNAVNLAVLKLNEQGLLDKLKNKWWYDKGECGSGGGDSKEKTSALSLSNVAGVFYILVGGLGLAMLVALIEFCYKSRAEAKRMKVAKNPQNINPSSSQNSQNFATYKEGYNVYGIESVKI
Sequence of UniProt P00921 (whole entry, looked up): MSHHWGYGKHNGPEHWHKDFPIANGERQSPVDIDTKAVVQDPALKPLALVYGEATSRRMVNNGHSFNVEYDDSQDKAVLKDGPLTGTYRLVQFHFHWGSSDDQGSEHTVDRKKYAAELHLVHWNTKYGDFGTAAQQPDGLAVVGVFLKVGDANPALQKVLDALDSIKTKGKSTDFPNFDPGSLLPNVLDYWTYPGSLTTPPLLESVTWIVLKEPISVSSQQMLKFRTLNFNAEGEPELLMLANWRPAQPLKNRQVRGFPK
Sequence of UniProt Q00987 (whole entry, unmodified, looked up): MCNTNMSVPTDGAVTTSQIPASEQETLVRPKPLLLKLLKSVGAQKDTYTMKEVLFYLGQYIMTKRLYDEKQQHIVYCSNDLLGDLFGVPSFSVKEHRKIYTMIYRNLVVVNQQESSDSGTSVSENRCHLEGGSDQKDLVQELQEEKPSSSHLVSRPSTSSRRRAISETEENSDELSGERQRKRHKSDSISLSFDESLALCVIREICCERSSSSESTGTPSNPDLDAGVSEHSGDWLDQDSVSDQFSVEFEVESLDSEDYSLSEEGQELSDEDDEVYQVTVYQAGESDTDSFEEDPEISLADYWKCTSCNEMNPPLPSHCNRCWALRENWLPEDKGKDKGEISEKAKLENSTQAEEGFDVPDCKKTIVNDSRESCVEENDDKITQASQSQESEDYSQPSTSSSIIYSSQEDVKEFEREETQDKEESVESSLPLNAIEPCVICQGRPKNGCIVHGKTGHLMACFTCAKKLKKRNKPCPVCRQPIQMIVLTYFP
Sequence of UniProt P33240 (whole entry, looked up): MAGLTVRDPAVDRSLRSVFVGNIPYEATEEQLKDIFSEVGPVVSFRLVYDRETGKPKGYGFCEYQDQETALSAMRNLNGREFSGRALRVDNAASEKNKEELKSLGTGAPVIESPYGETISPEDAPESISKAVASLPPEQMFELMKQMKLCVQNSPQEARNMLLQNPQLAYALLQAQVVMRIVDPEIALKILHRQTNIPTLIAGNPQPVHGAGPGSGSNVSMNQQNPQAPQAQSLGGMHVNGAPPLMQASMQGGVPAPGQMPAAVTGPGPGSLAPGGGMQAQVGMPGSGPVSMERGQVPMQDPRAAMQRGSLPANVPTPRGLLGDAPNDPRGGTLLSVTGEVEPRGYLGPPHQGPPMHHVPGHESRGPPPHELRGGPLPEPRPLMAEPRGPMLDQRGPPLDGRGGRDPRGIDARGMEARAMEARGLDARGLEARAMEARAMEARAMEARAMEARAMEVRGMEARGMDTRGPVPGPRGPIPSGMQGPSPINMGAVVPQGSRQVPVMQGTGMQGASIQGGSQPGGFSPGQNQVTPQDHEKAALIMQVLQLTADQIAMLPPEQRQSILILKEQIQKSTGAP
Sequence of UniProt P25929 (whole entry, looked up): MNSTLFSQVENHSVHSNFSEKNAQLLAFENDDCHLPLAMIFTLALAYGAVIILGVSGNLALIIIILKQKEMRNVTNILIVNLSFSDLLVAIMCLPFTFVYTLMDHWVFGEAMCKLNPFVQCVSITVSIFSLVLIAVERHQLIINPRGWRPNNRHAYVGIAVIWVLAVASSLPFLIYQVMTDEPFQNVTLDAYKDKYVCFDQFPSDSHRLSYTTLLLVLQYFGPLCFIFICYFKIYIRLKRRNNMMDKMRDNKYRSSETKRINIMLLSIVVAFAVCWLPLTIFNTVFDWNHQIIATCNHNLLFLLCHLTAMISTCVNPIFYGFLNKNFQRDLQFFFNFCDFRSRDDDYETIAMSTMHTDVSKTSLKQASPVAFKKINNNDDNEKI
Sequence of UniProt P34972 (whole entry, looked up): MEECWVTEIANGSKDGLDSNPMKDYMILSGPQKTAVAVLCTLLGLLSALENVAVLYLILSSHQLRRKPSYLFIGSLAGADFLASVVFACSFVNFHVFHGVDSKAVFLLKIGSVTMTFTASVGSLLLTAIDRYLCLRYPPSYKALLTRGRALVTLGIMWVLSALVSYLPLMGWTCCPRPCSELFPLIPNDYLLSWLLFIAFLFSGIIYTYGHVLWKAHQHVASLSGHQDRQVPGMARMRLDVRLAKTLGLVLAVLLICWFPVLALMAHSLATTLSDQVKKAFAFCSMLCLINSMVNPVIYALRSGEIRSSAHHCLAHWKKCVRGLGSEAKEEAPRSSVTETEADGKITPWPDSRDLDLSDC
Sequence of UniProt Q9HB29 (whole entry, looked up): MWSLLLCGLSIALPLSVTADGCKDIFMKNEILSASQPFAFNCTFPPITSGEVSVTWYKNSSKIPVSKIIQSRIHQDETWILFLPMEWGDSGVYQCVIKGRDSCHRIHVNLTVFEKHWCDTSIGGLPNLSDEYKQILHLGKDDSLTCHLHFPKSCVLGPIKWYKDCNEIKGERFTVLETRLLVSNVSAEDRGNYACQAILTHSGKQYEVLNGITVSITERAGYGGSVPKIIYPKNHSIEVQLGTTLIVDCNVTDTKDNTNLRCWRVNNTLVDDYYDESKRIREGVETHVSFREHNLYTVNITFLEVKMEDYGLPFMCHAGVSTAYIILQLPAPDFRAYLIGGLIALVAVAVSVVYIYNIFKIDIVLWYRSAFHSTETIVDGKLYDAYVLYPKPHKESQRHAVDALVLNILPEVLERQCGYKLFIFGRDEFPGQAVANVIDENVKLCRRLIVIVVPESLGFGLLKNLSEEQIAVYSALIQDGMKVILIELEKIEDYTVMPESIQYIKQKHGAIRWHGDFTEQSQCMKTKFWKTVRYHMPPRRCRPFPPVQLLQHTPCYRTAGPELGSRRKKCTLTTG
Sequence of UniProt P55210 (whole entry, looked up): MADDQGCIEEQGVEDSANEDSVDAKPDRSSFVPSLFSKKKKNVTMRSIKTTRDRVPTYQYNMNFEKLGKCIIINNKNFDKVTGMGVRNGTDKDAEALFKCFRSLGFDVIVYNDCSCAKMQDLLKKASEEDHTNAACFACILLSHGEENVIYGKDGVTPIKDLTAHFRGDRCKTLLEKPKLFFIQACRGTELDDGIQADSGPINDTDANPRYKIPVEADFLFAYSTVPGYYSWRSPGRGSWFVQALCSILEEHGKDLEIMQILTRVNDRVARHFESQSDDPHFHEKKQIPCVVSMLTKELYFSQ

NCc1cc2c(cc1F)C(=O)N(C1CCC(=O)NC1=O)C2 (centres unmarked) — Dmax (NEK7/CRBN (Homo sapiens, UniProt Q8TDX7+Q96SW2); degrader, Western blot; Hep3B; 24 h): 95%
N[C@H]1CC[C@H](Nc2nccc(-c3cccnc3Oc3ccc(NC(=O)NC4CC4)c4ccccc34)n2)CC1 — log2 LFQ intensity (Small ribosomal subunit protein eS19 (Homo sapiens, UniProt P39019); kinobead competition pulldown, item: RPS19; HEK293/HCT116 lysate mixture; 10 µM, 1 h, 4 °C; lower = stronger competition): 22.9 and 22.7 and 22.2 and 22.5
O=C1CCC(N2C(=O)c3cccc4c(Cc5cnn(C6CCN(C(=O)CO)CC6)c5)ccc2c34)C(=O)N1 (centres unmarked) — remaining activity (Cereblon/Ikaros (Homo sapiens, UniProt Q13422+Q96SW2); protein level, degrader, western blot; NCI-H929; 100 pM, 4 h): 88.9%
CC(C)[C@@H]1NC(=O)[C@H](Cc2ccccc2)NC(=O)CSC[C@@H](C(N)=O)NC(=O)[C@H](CCC(=O)O)NC(=O)[C@H](CO)NC(=O)[C@H](Cc2c[nH]c3cccc(Cl)c23)NC(=O)[C@H](C2CCCCC2)NC(=O)[C@H](C(C)C)NC(=O)[C@H](Cc2ccc(O)cc2)NC(=O)[C@H](CC(=O)O)NC(=O)[C@H](Cc2c[nH]c3ccccc23)NC(=O)[C@H](Cc2ccc(N)nc2)NC(=O)[C@H](Cc2c[nH]c3ccc(Cl)cc23)NC(=O)[C@H](CCC(=O)O)NC1=O — remaining activity (Interleukin-1 receptor-like 2 (IL1RL2, Homo sapiens, UniProt Q9HB29); reporter gene (SEAP), inhibitor, HEK-Blue IL-36R reporter; HEK-Blue IL-36R cells; 0.015 µM, 6 h, added: IL-36β 0.03 ng/mL): 102%
CCOC(=O)C(CC)(CCCSCCOCCNC(=O)OC(C)(C)C)NC(=O)c1ccc(C2CC2)c(Cc2ccc(F)cc2)n1 (centres unmarked) — Emax (Cannabinoid receptor 2 (CNR2, Homo sapiens, UniProt P34972); cAMP, agonist): 87%
Cc1c(C(=O)Nc2cccc(C(N)=O)c2)cnn1-c1ccccc1 — inhibition (Genome polyprotein, NS2B-NS3 protease (dengue virus type 2, UniProt P29990); reporter gene; HeLa; 12.5 µM): 27 ± 12%
CCCCCCCCCCCCC/C=C/C=O — isoTOP-ABPP competition ratio (Cleavage stimulation factor subunit 2 (CSTF2, Homo sapiens, UniProt P33240); competitive isoTOP-ABPP, item: CSTF2 cysteine peptide; proteome, soluble, MDA-MB-231; 100 µM, added: iodoacetamide probe; baseline: DMSO over compound-treated, higher = stronger cysteine blockade): 1
CC(=O)N[C@@H](CC(=O)O)C(=O)N[C@@H](CCC(=O)O)C(=O)N[C@@H](CC(C)C)C(=O)N[C@@H](CC(=O)O)C(=O)COC(=O)c1c(C)cccc1C — kinact/KI (Caspase-7 (CASP7, Homo sapiens, UniProt P55210); enzyme activity, inhibitor): 574000 M⁻¹ s⁻¹
O=C1c2sc(-c3ccc(N4CCC(CO)CC4)nc3F)nc2CCN1c1cccnc1 — inhibition (Neuropeptide Y receptor type 1 (NPY1R, Homo sapiens, UniProt P25929); ligand displacement, radioligand; 1 µM): -1%
CN(C)c1ccc2c(c1)C(=O)N(Cc1ccc(S(N)(=O)=O)cc1)C2=O — emission maximum (Carbonic anhydrase 2 (CA2, Bos taurus, UniProt P00921); binding): 543 nm
CC(=O)N[C@H]1C(n2cc([C@@](C)(O)c3cccc(F)c3)nn2)O[C@H](COCc2ccccc2)[C@H](OCc2ccccc2)[C@@H]1OCc1ccccc1 (some centres unmarked) — ΔTm (E3 ubiquitin-protein ligase Mdm2 (MDM2, Homo sapiens, UniProt Q00987); thermal stability, DSF; 30 µM): 3.23 °C
CC(C=CC=C(C)C=CC1=C(C)CCCC1(C)C)=CC=O — Pearson correlation coefficient (Rhodopsin (RHO, Homo sapiens, UniProt P08100, P23H); ER retention, immunostaining co-localization, item: opsin with calnexin; COS-7 transfected P23H; 10.00 µM): 0.69
CNC(=O)c1cnc(Nc2ccncc2)nc1-c1ccc(C)cc1 — number of kinases hit (human kinase panel; binding, KINOMEscan; 10000 nM, %Ctrl below 10): 1
O=C(O)Cc1cc2c(cc1C(=O)c1ccccc1Br)OCO2 — desensitization time constant (Glutamate receptor 2 (Gria2, Rattus norvegicus, UniProt P19491); whole-cell patch clamp; HEK-293T; concentration not given, added: glutamate): 1.1 ± 0.1 ms

Repeated from above:
CCOC(=O)C(CC)(CCCSCCOCCNC(=O)OC(C)(C)C)NC(=O)c1ccc(C2CC2)c(Cc2ccc(F)cc2)n1 (centres unmarked) — Emax (Cannabinoid receptor 2 (CNR2, Homo sapiens, UniProt P34972); cAMP, agonist): 87%
O=C1CCC(N2C(=O)c3cccc4c(Cc5cnn(C6CCN(C(=O)CO)CC6)c5)ccc2c34)C(=O)N1 (centres unmarked) — remaining activity (Cereblon/Ikaros (Homo sapiens, UniProt Q13422+Q96SW2); protein level, degrader, western blot; NCI-H929; 100 pM, 4 h): 88.9%
